{"data": "Results pooled from the literature", "note": "Protocols differ between the studies behind these lines. Several values in a cell are separate wells, animals, samples, runs or records. ± gives the spread as reported."}
{"SMILES": "COCCOCCOCCOc1ccc(/C=C/C2=[N+]3C(=C(c4cc(OC)cc(OC)c4)c4c(C)c(I)c(/C=C/c5ccc(OCCOCCOCCOC)cc5)n4[B-]3(F)F)C(C)=C2I)cc1", "test system": "DMSO", "quantity": "absorption maximum", "value": "666 nm"}
{"SMILES": "COc1ccc(-c2ccn(CC[C@](C)(C(=O)NO)S(C)(=O)=O)c(=O)c2)c(F)c1", "test system": "CF-1 mouse, female", "conditions": "subcutaneous, 18.75 mg/kg", "quantity": "free AUC", "value": "1580 ± 320 ng·h/mL"}
{"SMILES": "CC[C@@H](C)N([11CH3])C(=O)c1nc(-c2ccc(Cl)cc2)c2ccccc2n1", "assay": "PET Logan analysis", "test system": "male rhesus monkey, cerebellum", "conditions": "intravenous, dose not given, baseline", "quantity": "total volume of distribution", "value": "25.6 mL/cm³"}
{"SMILES": "Cc1ccc(NCC(=O)N2CCC(F)(F)CC2)cc1S(=O)(=O)N1CCOCC1", "test system": "water", "quantity": "kinetic solubility", "value": "> 250 µM"}
{"SMILES": "COCCOCCOCCOCCOCCOCCOCCOCCNC(=O)CCc1ccc(N(c2ccc(CCC(=O)NCCOCCOCCOCCOCCOCCOCCOCCOC)cc2)c2ccc(-c3c4c(c(-c5ccc(N(c6ccc(CCC(=O)NCCOCCOCCOCCOCCOCCOCCOCCOC)cc6)c6ccc(CCC(=O)NCCOCCOCCOCCOCCOCCOCCOCCOC)cc6)cc5)c5nsnc35)N=S=N4)cc2)cc1", "test system": "KM mice, female, faeces", "conditions": "intravenous, dose not given, 24 h", "scale": "reference: dose", "quantity": "faecal excretion", "value": "~19%"}
{"SMILES": "Cn1c(=O)oc2ccc(-c3ccc(CC(C#N)NC(=O)C4CNCCCO4)c(F)c3)cc21 (stereo not shown)", "test system": "human volunteers", "conditions": "dose not given, parts A and B", "quantity": "tolerability", "value": "not toxic"}
{"SMILES": "[11CH3]c1ccc2nc(C3CCC3)n(-c3ccc4[nH]ncc4c3)c2n1", "test system": "human female, breasts", "conditions": "extrapolated from mouse biodistribution", "quantity": "absorbed radiation dose", "value": "2.5 µSv/MBq"}
{"SMILES": "COC(=O)C(c1ccccc1Cl)N1CCC(SCC(=O)c2cccc(OC)c2)C(=CC(=O)O)C1 (mixture of isomers)", "assay": "HPLC-MS/MS", "test system": "feline citrate plasma", "conditions": "100 ng/mL, 48 h, 4 °C, storage stability", "quantity": "deviation from nominal", "value": "6%"}
{"SMILES": "Cc1ccc(C(C)C)cc1.O=C(N=P(c1ccccc1)(c1ccccc1)c1ccccc1)c1ccccn1.[Cl-].[Cl-].[Ru+2]", "assay": "ICP-MS, refers to: ruthenium", "test system": "NOD.CB17-Prkdc scid/J mouse, plasma", "conditions": "intraperitoneal, 5 mg/kg, after first dose", "quantity": "absorption half-life", "value": "30 min"}
{"SMILES": "O=C([O-])CN1CCN(CC(=O)[O-])CCN(CC(=O)NCCc2ccc3c(c2)C2C=CCC2C(c2cc4c(cc2Br)OCO4)N3)CCN(CC(=O)[O-])CC1.[111In+3] (stereo not shown)", "test system": "mouse, Hec50 endometrial tumour, lungs", "conditions": "0.5 h post injection", "quantity": "tissue uptake", "value": "4.98 ± 0.84 %ID/g"}
{"SMILES": "Cc1ccc(O)c2c3c(nn12)CCC(C)(NC(=O)c1ccc(-n2cnc4cc(C(=O)O)ccc42)cc1Cl)C3 (stereo not shown)", "assay": "linear PK/PD model, refers to: cuticle bleeding time", "test system": "Sprague Dawley rat, male", "conditions": "intravenous", "quantity": "slope", "value": 5.93}
{"SMILES": "CCCC[C@H](NC(=O)CNC(=O)CNC(=O)CN1CCN(CC(=O)O)CCN(CC(=O)O)CC1)C(=O)N[C@H]1CC(=O)NCCCC[C@@H](C(N)=O)NC(=O)[C@H](Cc2c[nH]c3ccccc23)NC(=O)[C@H](CCCNC(=N)N)NC(=O)[C@@H](Cc2ccccc2)NC(=O)[C@H](Cc2c[nH]cn2)NC1=O [copper-64 labelled]", "test system": "female C57 mouse, B16/F1 melanoma, spleen", "conditions": "intravenous, 0.037 MBq, 0.5 h", "quantity": "tissue uptake", "value": "0.51 ± 0.07 %ID/g"}
{"SMILES": "COc1ccc(/C=C/c2ccc(-c3ccc(C)cn3)nc2)cc1", "assay": "TCSPC", "test system": "acetonitrile", "conditions": "zinc-free ligand", "quantity": "radiative decay rate constant", "value": "0.47 ns⁻¹"}
{"SMILES": "Nc1ccn(CC(=O)N[C@@H](Cc2ccccc2)C(=O)N[C@@H](Cc2ccccc2)C(=O)O)c(=O)n1", "assay": "TEM", "test system": "hydrogel in water", "conditions": "2.0 wt%, pH 5.0 or 7.4, together with: alkaline phosphatase at pH 7.4", "quantity": "nanofiber width", "value": "10 nm"}
{"SMILES": "CCC(C)N(C)C(=O)c1nc(-c2cccc(C(F)(F)[18F])c2)c2ccccc2n1 (stereo not shown)", "test system": "Sprague-Dawley rat, brain", "conditions": "intravenous, 60 min", "quantity": "parent compound remaining", "value": "98% and > 98%"}
{"SMILES": "Oc1ccc2ccccc2c1/N=N/c1ccc(/N=N/c2ccccc2)cc1", "test system": "rat whole blood extract", "conditions": "0.5 µg/L, 30 days, -20 °C, long-term storage", "quantity": "measured concentration", "value": "0.51 µg/L"}
{"SMILES": "C#CCOc1ccc(/C=C2\\SC(=O)N(CC(=O)NCc3ccccc3)C2=O)cc1", "assay": "inverse Kirkwood-Buff integrals", "test system": "binary solvent mixture", "conditions": "298.15 K, mole fraction x1 0.05", "quantity": "Kirkwood-Buff integral G1,3", "value": "-651 cm³/mol"}
{"SMILES": "C=C(c1ncc(C(=O)O)cn1)c1cc2c(cc1C)C(C)(C)CCC2(C)C", "test system": "Sprague-Dawley rat, male, plasma", "conditions": "oral, 100 mg/kg, 24 h, sesame oil vehicle", "quantity": "LDL level", "value": "4 ± 1 mg/dL"}
{"SMILES": "CC[C@H](C)[C@H](NC(=O)[C@@H](NC(=O)[C@H](CS)NC(=O)[C@H](C)NC(=O)[C@H](CC(N)=O)NC(=O)[C@H](CCCNC(=N)N)NC(=O)[C@H](CCCNC(=N)N)NC(=O)[C@H](CC(N)=O)NC(=O)[C@H](CCCNC(=N)N)NC(=O)[C@H](CCCNC(=N)N)NC(=O)[C@H](C)NC(=O)[C@H](CS)NC(=O)[C@H](CC(C)C)NC(=O)[C@@H](NC(=O)[C@@H](NC(=O)[C@H](CS)NC(=O)[C@H](CCCCN)NC(=O)[C@@H](N)CCCNC(=N)N)C(C)C)[C@@H](C)CC)C(C)C)C(=O)N[C@@H](CC(C)C)C(=O)N[C@@H](CS)C(=O)N[C@@H](CCCNC(=N)N)C(=O)O", "assay": "LC-MS", "test system": "PBS", "conditions": "0.1 mg/mL", "quantity": "single disulfide form", "value": "12%"}
{"SMILES": "CC(C)c1cnc(-c2cc(Cl)ccc2F)cc1Nc1ccncc1C(=O)NC(CO)CO", "assay": "refers to: intracranial tumour haemorrhage", "test system": "human patients", "conditions": "oral, dose not given, grade 3", "quantity": "patients with related SAE", "value": "2.4%"}
{"SMILES": "Cc1noc(C)c1Cn1cc(N2C(=O)CN(Cc3cccc(O[C@@H]4O[C@H](C(=O)O)[C@@H](O)[C@H](O)[C@H]4O)c3)C2=O)cn1", "test system": "rat Sprague-Dawley male, plasma", "conditions": "oral, 10 mg/kg of parent drug", "quantity": "half-life", "value": "84 min"}
{"SMILES": "N=C(N)NCCC[C@@H]1NC(=O)[C@H](Cc2c[nH]c3ccccc23)NC(=O)[C@@H](CC2CCCCC2)NC(=O)[C@@H]2CCCN2C(=O)[C@@H](NC(=O)CCc2ccccc2)CCCNC1=O", "test system": "C57BL/6J mice, brain", "conditions": "oral, 1 mg/kg", "quantity": "Tmax", "value": "20.7 min"}
{"SMILES": "C[Si](C)(C)C[C@H](CN)CC(=O)O", "assay": "neuromuscular coordination", "test system": "Wistar rat male", "conditions": "oral, 100 mg/kg, 3 h", "quantity": "performance time", "value": "180 s"}
{"SMILES": "CC(C)C[C@@H](NC(=O)[C@H](NC(=O)[C@H]1CCCN1)[C@H](C)O)C(=O)N[C@H](Cc1c[nH]cn1)C(=O)N[C@@H](C(=O)N[C@H](Cc1c[nH]cn1)C(=O)N[C@H](CC(N)=O)C(=O)N[C@H](CCCNC(=N)N)C(=O)N[C@H](CCCNC(=N)N)C(=O)N[C@H](CCCNC(=N)N)C(=O)N[C@H](CCCNC(=N)N)C(=O)N[C@H](CCCNC(=N)N)C(N)=O)[C@H](C)O", "test system": "Beagle dog, CSF", "conditions": "intravenous, 3 mg/kg, single dose", "quantity": "AUC(0-t)", "value": "961 ± 373 ng·h/mL"}
{"SMILES": "C[C@H](CN(C)Cc1ccccc1)NC(=O)c1ccc(-c2noc(C(F)(F)[18F])n2)cc1", "assay": "radio-HPLC", "test system": "Sprague-Dawley rat, female, plasma", "conditions": "intravenous, 60 min", "quantity": "parent tracer fraction", "value": "30 ± 2%"}
{"note": "Repeated from above:"}
{"SMILES": "O=C([O-])CN1CCN(CC(=O)[O-])CCN(CC(=O)NCCc2ccc3c(c2)C2C=CCC2C(c2cc4c(cc2Br)OCO4)N3)CCN(CC(=O)[O-])CC1.[111In+3] (stereo not shown)", "test system": "mouse, Hec50 endometrial tumour, lungs", "conditions": "0.5 h post injection", "quantity": "tissue uptake", "value": "4.98 ± 0.84 %ID/g"}
{"SMILES": "Cc1ccc(O)c2c3c(nn12)CCC(C)(NC(=O)c1ccc(-n2cnc4cc(C(=O)O)ccc42)cc1Cl)C3 (stereo not shown)", "assay": "linear PK/PD model, refers to: cuticle bleeding time", "test system": "Sprague Dawley rat, male", "conditions": "intravenous", "quantity": "slope", "value": 5.93}
